# Assay results from different studies.
# Lines come from different studies, so protocols differ. ± gives the spread as reported.
Structure (SMILES),test,test system,setting,how to read,endpoint,result
NS(=O)(=O)c1ccc(N2N=C(C(F)(F)F)CC2c2ccc(F)cc2F)cc1 (stereo not shown),,"beagle dog, plasma","oral, 4 mg/kg, single dose",,half-life,29.3 h
C/C(=N\OCCCN1CCOCC1)c1ccc(C(F)(F)F)cc1,,liver microsomes,,relative to: human over mouse,metabolic stability ratio,~3 fold
N=C(N)NCCC[C@@H]1NC(=O)[C@H](Cc2c[nH]c3ccccc23)NC(=O)[C@@H](CC2CCCCC2)NC(=O)[C@@H]2CCCN2C(=O)[C@@H](NC(=O)CCc2ccccc2)CCCNC1=O,,"C57BL/6J mice, brain","oral, 1 mg/kg, two-compartment model",,distribution rate constant k12,< 0.001 h⁻¹
CC(C)(O)c1ncc([S@](N)(=O)=NC(=O)Nc2c3c(cc4c2CCC4)CCC3)s1,,healthy human,"oral, 10 mg once daily, day 14, capsule formulation, geometric mean",,AUC(0-tau),11200 ng·h/mL
CC[C@@H](C)N([11CH3])C(=O)c1nc(-c2ccccc2Cl)c2ccccc2n1,ultrafiltration,"rhesus monkey, plasma",TSPO preblock scan,,plasma free fraction,0.116 ± 0.003
CCCC[C@H](NC(=O)CNC(=O)CNC(=O)CN1CCN(CC(=O)O)CCN(CC(=O)O)CC1)C(=O)N[C@H]1CC(=O)NCCCC[C@@H](C(N)=O)NC(=O)[C@H](Cc2c[nH]c3ccccc23)NC(=O)[C@H](CCCNC(=N)N)NC(=O)[C@@H](Cc2ccccc2)NC(=O)[C@H](Cc2c[nH]cn2)NC1=O [gallium-67 labelled],,"female C57 mice, B16/F1 melanoma","intravenous, 0.037 MBq, 2 h",relative to: tumour over liver,tumour to tissue ratio,42.4
NCCCC(=O)OCC(=O)c1ccc(O)c(C(F)(F)F)c1.O=C(O)C(F)(F)F,"photolysis, refers to: disappearance of compound",unbuffered water,,,quantum yield,0.17
CCc1cc(Nc2nc(-c3ccc(-n4cnc(C)c4)c(F)c3)cs2)c(C)cc1C,,"human, both sexes, plasma","oral, 100 mg once daily, day 14, multiple dose, geometric mean",,terminal elimination rate constant,2.22e-05 s⁻¹
N=C(N)NCCC[C@@H]1NC(=O)[C@H](CCCNC(=N)N)NC(=O)[C@H](CCCNC(=N)N)NC(=O)[C@H](CCCNC(=N)N)NC(=O)[C@H](Cc2c[nH]c3ccccc23)NC(=O)[C@H](CCCNC(=N)N)NC(=O)[C@H](CCCNC(=N)N)NC(=O)[C@@H](N)CSSC[C@@H](C(N)=O)NC1=O,HPLC,PBS,"concentration not given, pH 7.4, room temperature, together with: GSH 4 mM",,time to near-complete reduction,≤ 1 min
CCCC[C@H](NC(=O)CNC(=O)CNC(=O)CN1CCN(CC(=O)O)CCN(CC(=O)O)CCN(CC(=O)O)CC1)C(=O)N[C@H]1CC(=O)NCCCC[C@@H](C(N)=O)NC(=O)[C@H](Cc2c[nH]c3ccccc23)NC(=O)[C@H](CCCNC(=N)N)NC(=O)[C@@H](Cc2ccccc2)NC(=O)[C@H](Cc2c[nH]cn2)NC1=O [copper-64 labelled],,"female C57 mouse, B16/F1 melanoma","intravenous, 0.037 MBq, 24 h",relative to: tumour over stomach,uptake ratio,4.93
COC(=O)c1ccc2c(c1)NC(=O)/C2=C(\Nc1ccc2c(c1)CCN2C(=O)CN1CCOCC1)c1ccccc1,,"cynomolgus monkey, plasma","intravenous, 2 mg/kg",,half-life,6.82 h
CC(C)N(P(c1ccccc1)c1ccccc1)P(c1ccccc1)c1ccccc1.Cc1ccc(C(C)C)cc1.F[B-](F)(F)F.[Cl][Ru+],refers to: ruthenium,"BALB/c nude mice, serum","ip, 5 mg/kg",,apparent clearance,0.105 L/h
C=C(c1cc(F)c(C(=O)O)c(F)c1)c1cc2c(cc1C)C(C)(C)CCC2(C)C,,"Sprague-Dawley rat, male","oral, 100 mg/kg, 12 h, sesame oil vehicle",,blood triglycerides,181 ± 12.2 mg/dL
CC1(C)CCC(CN2CCN(c3ccc(C(=O)NS(=O)(=O)c4ccc(NCC5COCCO5)c([N+](=O)[O-])c4)c(N4CCCOc5nc6[nH]ccc6cc54)c3)CC2)=C(c2ccc(Cl)cc2)C1 (stereo not shown),,"Beagle dogs, both sexes","oral, 14 days once daily",,platelet-toxic dose,> 30 mg/kg
CC1=CC(C)=[N+]2C1=Cc1ccc(CCC(=O)N3CCN(C(=O)c4cc(Cc5n[nH]c(=O)c6ccccc56)ccc4F)CC3)n1[B-]2(F)F,ex vivo imaging,"athymic nude NU/J mice, U87 or U-251 xenograft, brain","intravenous, 2.5 mg/kg, 90 min",,mean fluorescence,0.13 AU/pixel
NC12CNCCNCC(NCc3ccc(CNC(=O)CCCC(=O)NCc4ccc(-c5nncnn5)cc4)cc3)(CNCCNC1)CNCCNC2.[64Cu+2],OLINDA dosimetry,muscle,"48 h pretargeting interval, together with: huA33-TCO pretargeting",,mean absorbed dose,0.0163 rad/mCi
CCCC[C@@H]1NC(=O)[C@@H](NC(=O)[C@H](CCC(=O)O)NC(=O)CNC(=O)CN2CCN(CC(=O)O)CCN(CC(=O)O)CCN(CC(=O)O)CC2)CCCCNC(=O)C[C@@H](C(N)=O)NC(=O)[C@H](C(C)C)NC(=O)[C@@H]2CCCN2C(=O)[C@H](CCCNC(=N)N)NC(=O)CNC(=O)[C@H](Cc2c[nH]c3ccccc23)NC(=O)[C@H](CCCNC(=N)N)NC(=O)[C@@H](Cc2ccccc2)NC(=O)[C@H](Cc2c[nH]cn2)NC(=O)[C@H](CCC(=O)O)NC1=O [gallium-67 labelled],,C57 mice with B16/F1 melanoma,"intravenous, 0.037 MBq/mouse, 4 h",relative to: tumour over liver,tumour to liver ratio,32.5
COc1cc(NC(C)=O)c2c(c1O)-c1c(OC)c(OC)cc3c1C(C2)N(C)CC3 (stereo not shown),,"rat, plasma","0.5 µg/mL, 40 d, -20 °C, long-term storage",,remaining compound,95.4 ± 3.2%
[11CH3]c1ccc2nc(C3CCC3)n(-c3ccc4[nH]ncc4c3)c2n1,extrapolated from mouse biodistribution,"standard human, total body",,,absorbed dose,3.2 µSv/MBq
CC(C)c1cnc(-c2cc(Cl)ccc2F)cc1Nc1ccncc1C(=O)NC(CO)CO,"monotherapy, refers to: diarrhoea",human patients,"oral, dose not given, grade 5, phase I A",,patients with treatment-related adverse event,0%
C#CCOc1ccc(/C=C2\SC(=O)N(CC(=O)NCc3ccccc3)C2=O)cc1,inverse Kirkwood-Buff integrals,binary solvent mixture,"298.15 K, mole fraction x1 0.80",,"Kirkwood-Buff integral G2,3",-365 cm³/mol
COCC1CN(C2CCN(c3cc(OC)c(Nc4ncc(Br)c(Nc5ccc6c(c5P(C)(C)=O)OCCO6)n4)cc3C)CC2)C1,,human patients,"oral, 10 to 240 mg once daily",,"treatment-related ALP increased, all grades",14.8%
COc1cc(C)c(Cc2ccc(O)cc2)cc1[C@@H]1S[C@H](CO)[C@@H](O)[C@H](O)[C@H]1O,,"Japanese T2DM patients, urine","0.5 mg luseogliflozin, day 1, once daily",relative to: dose,urinary excretion 0-24 h,5.22 ± 0.848%
CC[C@H](C)[C@H](NC(=O)[C@H](CC(C)C)NC(=O)[C@H](Cc1c[nH]c2ccccc12)NC(=O)[C@H](C)NC(=O)[C@@H](NC(=O)[C@H](Cc1ccccc1)NC(=O)[C@H](CC(=O)O)NC(=O)[C@H](CCCNC(=N)N)NC(=O)[C@H](C)NC(=O)[C@H](C)NC(=O)[C@H](CC(C)C)NC(=O)[C@H](C)NC(=O)[C@H](CC(=O)O)NC(=O)[C@H](CC(C)C)NC(=O)[C@@H](NC(=O)[C@@H](NC(=O)[C@H](C)NC(=O)[C@H](CC(C)C)NC(=O)[C@H](CCC(=O)O)NC(=O)[C@H](CO)NC(=O)[C@H](CO)NC(=O)[C@H](Cc1ccccc1)NC(=O)[C@@H](NC(=O)CNC(=O)[C@H](CCC(=O)O)NC(=O)CNC(=O)[C@@H](N)Cc1cnc[nH]1)[C@@H](C)O)[C@@H](C)O)[C@@H](C)CC)[C@@H](C)CC)C(=O)N[C@@H](C)C(=O)N[C@H](C(=O)N[C@@H](CCCCN)C(=O)N[C@H](C(=O)N[C@H](C(=O)N[C@@H](CC(=O)O)C(=O)N[C@@H](CCCCN)C(=O)N[C@@H](CCCCN)C(=O)N[C@@H](CCCCN)C(=O)N[C@@H](CCCCN)C(=O)N[C@@H](CCCCN)C(=O)N[C@@H](CCCCN)C(N)=O)[C@@H](C)O)[C@@H](C)CC)[C@@H](C)O,,"healthy humans, plasma","subcutaneous, 5 mg once weekly, 6 doses, day 36, mean",,terminal half-life,228 h
O=[N][Fe]1([N]=O)[S](CCO)[Fe]([N]=O)([N]=O)[S]1CCO,EPR,mouse plasma,,,conversion to protein-bound form,76 to 100%
Cc1cnc(Nc2cc(C)c(C)c(C)c2)nc1Nc1ccc2oc(=O)[nH]c2c1,,"rat, whole lung","intratracheal, dose not given, 24 h, 100% lung deposition assumed",,dose remaining in lung,23%
Oc1ccc2ccccc2c1/N=N/c1ccc(/N=N/c2ccccc2)cc1,,rat whole blood extract,"0.2 µg/L, 30 days, -20 °C, long-term storage",,stability deviation,2%
COc1ccc(/C=C/c2ccc(-c3ccc(C)cn3)nc2)cc1,TCSPC,"water, HEPES 100 mM",pH 7.4,,fluorescence lifetime,1.11 ns
O=C(O)[C@@H]1C[C@@H](O)CN1C(=O)[C@@H]1CCCN1,potentiometric titration,water,"40 °C, 0.15 mol/dm3 NaCl",,pKa2,5.23
CC(C)CCCC(C)CCCC(C)CCO[C@@H]1O[C@H](CO)[C@@H](O[C@H]2O[C@H](CO)[C@@H](O)[C@H](O)[C@H]2O)[C@H](O)[C@H]1O (stereo partly shown),dynamic surface tension,,0.0036 mmol/L,,induction time,180 s
CC(C)[C@H](NC(=O)CNC(=O)[C@H](CCC(N)=O)NC(=O)[C@H](C)N)C(=O)O,LC-MS/MS,"human, male, plasma","intravenous, 20 mg/kg three times daily, day 3, first dose, 10 min infusion, geometric mean",,Cmax,4540 ng/mL
CCCC(CCC)NC(=O)c1ccc(OS(=O)(=O)O)c(OC)c1,,"male Sprague-Dawley rats, plasma","oral, 200 mg/kg of parent drug",relative to: 200 over 20 mg/kg dose,Cmax ratio,3.96
O=C(O)C1CN(Cc2ccc(-c3noc(-c4ccc(OCC[18F])c(C(F)(F)F)c4)n3)cc2)C1,,"rat, bone","intravenous, 1 h",,tracer uptake,0.105 %ID/g
NCCCC(=O)OCC(=O)c1cc(F)c(O)c(F)c1.O=C(O)C(F)(F)F,"photolysis, refers to: rearranged acid appearance",aqueous HEPES buffer with LiClO4,pH 8.2,,quantum yield,< 0.01
Cc1ccc(OCC(=O)O)cc1,,"Sprague-Dawley rat, female, plasma","oral gavage, 100 mg/kg of parent drug",,Tmax,2 h
CN1CCC[C@]1(C)/C=C/S(=O)(=O)NC(=O)Nc1c2c(cc3c1CCC3)CCC2,,"human, plasma","oral, 100 mg twice daily, day 1, tau 12 h, multiple ascending dose",,AUC(0-tau),66800 ng·h/mL
CCCCN1C(=O)c2cccc3c(NCCCN4CCOCC4)ccc(c23)C1=O,,aqueous medium,pH 6,,fluorescence brightness,5080 M⁻¹ cm⁻¹
CCCC[C@H](NC(C)=O)C(=O)N[C@H]1CC(=O)NCCCC[C@@H](C(=O)N[C@@H](C(=O)N2CCC[C@@H]2C(N)=O)C(C)C)NC(=O)[C@H](Cc2c[nH]c3ccccc23)NC(=O)[C@H](CCCN=C(N)N)NC(=O)[C@@H](Cc2ccc3ccccc3c2)NC(=O)[C@@H]2CCCN2C1=O,,"healthy dogs, plasma","subcutaneous, 2.25 mg/kg per day, day 1, 12 h post-dose, median",,plasma histamine,14.3 ng/mL
Cn1c(=O)oc2ccc(-c3ccc(CC(C#N)NC(=O)C4CNCCCO4)c(F)c3)cc21 (stereo not shown),,human,"oral, 20 mg once daily, TEAE, multiple ascending dose",,ALT increased incidence,11.1%
Cc1[nH]c(/C=C2\C(=O)Nc3ccc(F)cc32)c(C)c1NC(=O)CCN1CCN(C)CC1,,dog plasma,"80 ng/mL nominal, three freeze-thaw cycles at -20 °C",,accuracy deviation,-5.62%

# Some of these lines once more:
Structure (SMILES),test,test system,setting,how to read,endpoint,result
COc1cc(NC(C)=O)c2c(c1O)-c1c(OC)c(OC)cc3c1C(C2)N(C)CC3 (stereo not shown),,"rat, plasma","0.5 µg/mL, 40 d, -20 °C, long-term storage",,remaining compound,95.4 ± 3.2%
[11CH3]c1ccc2nc(C3CCC3)n(-c3ccc4[nH]ncc4c3)c2n1,extrapolated from mouse biodistribution,"standard human, total body",,,absorbed dose,3.2 µSv/MBq
CC(C)c1cnc(-c2cc(Cl)ccc2F)cc1Nc1ccncc1C(=O)NC(CO)CO,"monotherapy, refers to: diarrhoea",human patients,"oral, dose not given, grade 5, phase I A",,patients with treatment-related adverse event,0%
C#CCOc1ccc(/C=C2\SC(=O)N(CC(=O)NCc3ccccc3)C2=O)cc1,inverse Kirkwood-Buff integrals,binary solvent mixture,"298.15 K, mole fraction x1 0.80",,"Kirkwood-Buff integral G2,3",-365 cm³/mol
COCC1CN(C2CCN(c3cc(OC)c(Nc4ncc(Br)c(Nc5ccc6c(c5P(C)(C)=O)OCCO6)n4)cc3C)CC2)C1,,human patients,"oral, 10 to 240 mg once daily",,"treatment-related ALP increased, all grades",14.8%
